Measured values gathered from unrelated publications.
Numbered parts are unrelated; each lists some results of a single study. Substitutions count along the parent as printed.
UniProt Q9C0B0, sequence (30-357, looked up): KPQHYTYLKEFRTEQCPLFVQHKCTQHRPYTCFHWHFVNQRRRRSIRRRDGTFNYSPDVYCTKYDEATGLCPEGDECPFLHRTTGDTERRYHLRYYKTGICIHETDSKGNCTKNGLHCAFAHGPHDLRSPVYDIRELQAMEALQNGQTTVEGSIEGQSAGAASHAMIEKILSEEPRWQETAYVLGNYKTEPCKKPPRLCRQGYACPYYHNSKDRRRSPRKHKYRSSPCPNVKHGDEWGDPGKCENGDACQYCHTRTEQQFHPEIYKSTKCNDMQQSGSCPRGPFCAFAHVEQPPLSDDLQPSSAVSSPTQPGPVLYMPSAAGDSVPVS

Set 1
Target: Histone acetyltransferase KAT6A, winged helix 1, GST fusion (KAT6A, Homo sapiens, UniProt Q92794, residues 1-85)
Method: protein binding microarray
Molecule type: double-stranded DNA, one strand shown
Sample: in vitro
Tested at: not given
Notes: 8-mer, flanks averaged, mean of 2 arrays, mostly near background
Baseline: not given
Reading: higher = stronger binding
Residues (chain): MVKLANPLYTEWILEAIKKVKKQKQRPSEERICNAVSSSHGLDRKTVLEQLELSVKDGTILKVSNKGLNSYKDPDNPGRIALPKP
Oligonucleotide | E-score
ACCATCGT | -0.115
AAGGCCGA | 0.213
CGCGAGCA | 0.0853
AGGCTCCC | -0.0221
ATTCCTTC | -0.0541
CACACCCA | -0.165
GAATTTCC | -0.115
CATTTTGC | -0.0832
CGACAAGC | 0.225
AGAAGCCC | 0.0592
AGAGTGAT | -0.215
GCCACACA | -0.202
CTAACGGA | 0.0625
ATCGCTGA | 0.0117
ATACCGTG | 0.21
ACCGAGAT | -0.0398
ACCATTGC | 0.0212
ACAGACAA | -0.0885
AACTGGTA | -0.188
AACTCACC | -0.197
AGATATTA | -0.00194
CCTTTTTA | -0.167
CAGCGGCG | 0.411

Set 2
Target: CCNA1, cyclin fold, Cln2 fusion (human)
Method: yeast growth competition, sequencing
Sample: yeast
Notes: weak parent motif
Baseline: not given
Reading: higher = stronger binding
Parent: WEE1 docking peptide (human); HKTFRKLRLFDTP
Variant | normalised enrichment score
HKTFRKLMLFDTP [R8M] | 0.424
HKTFVKLRLFDTP [R5V] | -0.103
HKAFRKLRLFDTP [T3A] | 0.0129
HKTFHKLRLFDTP [R5H] | 0.522
HKTFRKLCLFDTP [R8C] | 0.434
HKTFRKLRLNDTP [F10N] | 0.00978
HKTFGKLRLFDTP [R5G] | -0.247
HWTFRKLRLFDTP [K2W] | 0.186
HKTFRKLSLFDTP [R8S] | 0.651
HMTFRKLRLFDTP [K2M] | 0.0039
HKTHRKLRLFDTP [F4H] | 0.408
HKTFRKDRLFDTP [L7D] | -0.0569
HKTFRKIRLFDTP [L7I] | 0.566
HKTFRKLRLFDDP [T12D] | 0.517
HKTFRKLRLRDTP [F10R] | 0.527
HKTFRKLRLFDTG [P13G] | 0.00982
EKTFRKLRLFDTP [H1E] | 0.271
HKTFRKLPLFDTP [R8P] | 0.116
HKTFRKLRTFDTP [L9T] | 0.118
HKTFRKLRDFDTP [L9D] | 0.284
HKTFRKLGLFDTP [R8G] | 0.234
HKTFRKTRLFDTP [L7T] | 0.368
HKTFRKLRLLDTP [F10L] | 0.0135

Set 3
Target: Centromere-binding protein 1, full length, His-tagged (CBF1, Saccharomyces cerevisiae, UniProt P17106, residues 1-351)
UniProt P17106, sequence (whole entry, looked up): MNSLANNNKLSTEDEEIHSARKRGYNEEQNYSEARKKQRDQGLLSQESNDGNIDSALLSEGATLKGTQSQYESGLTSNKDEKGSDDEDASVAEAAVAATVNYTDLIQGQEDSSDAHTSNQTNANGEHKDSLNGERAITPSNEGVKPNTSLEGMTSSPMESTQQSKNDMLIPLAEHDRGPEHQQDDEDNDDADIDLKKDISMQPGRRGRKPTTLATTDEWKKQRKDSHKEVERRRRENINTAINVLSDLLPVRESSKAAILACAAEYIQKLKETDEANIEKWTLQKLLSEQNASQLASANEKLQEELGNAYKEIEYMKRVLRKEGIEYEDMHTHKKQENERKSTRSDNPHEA
Method: competition protein-binding microarray
Molecule type: double-stranded DNA, one strand shown
Sample: in vitro
Tested at: 2 µM
Notes: whole 60-bp probe, lowest competitor level
Added: Pho4 competitor, 0.05 µM
Reading: higher = stronger binding
Shared flanks, not repeated: … GTCTTGATTCGCTTGACGCTGCTG
Oligonucleotide | fluorescence intensity [a.u.]
GAAATGGTAGTTACACGCGTGAAATCAGGGTCTTAA | 103
GTCTTGTCTCATTGTCACGAGACTTTCCCCACTTCA | 865
GGACAACATGGACTCATCGTGATGGGACTGATATGA | 77.8
CGTCCTAGTGATTTTCACGTGCAATCCATGAGGAAG | 883
TCTTCCGCGATGTTTCTCGTGGTGAGGCTATGGGCA | 63.4
AGAATCACCCCATCTTACGTGGCAATCACCGATGAT | 63.8
CGGGGTTAAGTTTGTCAGGTGGGTGGCTTGCAGCAG | 123
CTTCTGTAAATTTGAAAGGTGGGTGGACGCGCCCCG | 86.3
AAATTACTAAGTTGGGACGTGGGTGACGCCGTATGA | 63.5
TGCATGGATATATTTGGCCCTGTATCAAGTTCAAAC | 116
CGTCCTAGTGATTGGGAAGTGGGTGCCATGAGGAAG | 71.5
TGTTCTTCGTAGAAATGCATGCAGAAAAATTTTGAT | 120
AGCTCTCCATTATTTTGAAGTTTTAGACCCTATAAT | 75.3
TGAGGATGGCTATGGCATGTGGTAGTGGGATTAGAG | 71.3
CCGACCTTGTTGAAGTGCATGACAATACCGTCGTCC | 88.5
CCCACATATATACCGATGTTGATAAACACCATTAAA | 69.8

Set 4
Target: ABI1, truncated, D143A, DHFR fusion (Arabidopsis thaliana)
Method: DHFR PCA, deep sequencing
Sample: yeast
Notes: methotrexate growth selection, single substitutions
Added: (+)-ABA 0 µM
Baseline: wild-type fitted maximum
Reading: higher = stronger binding
Parent: PYL1, truncated, DHFR fusion (Arabidopsis thaliana); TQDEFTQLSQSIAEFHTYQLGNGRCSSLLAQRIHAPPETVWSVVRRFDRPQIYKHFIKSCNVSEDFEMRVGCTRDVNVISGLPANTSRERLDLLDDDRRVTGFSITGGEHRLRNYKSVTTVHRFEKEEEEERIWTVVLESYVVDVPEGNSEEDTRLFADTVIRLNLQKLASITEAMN; partner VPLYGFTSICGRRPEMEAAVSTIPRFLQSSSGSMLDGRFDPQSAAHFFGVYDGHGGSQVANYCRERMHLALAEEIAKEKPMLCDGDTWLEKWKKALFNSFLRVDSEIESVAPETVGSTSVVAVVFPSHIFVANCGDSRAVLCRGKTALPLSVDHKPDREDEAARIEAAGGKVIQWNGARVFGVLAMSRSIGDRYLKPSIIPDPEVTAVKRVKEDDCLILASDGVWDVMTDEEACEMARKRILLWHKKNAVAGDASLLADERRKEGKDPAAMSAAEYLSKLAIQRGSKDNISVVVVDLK
Variant | relative binding score [%]
Y141N | 2.06
D144M | -3.69
R74S | 1.66
C72A | 52.8
Q7E | 34
G102A | 11.6
R88S | 6.27
R90W | -3.22
E109L | -5.4
T39K | 9.9
T120D | -4.54
T101Y | 2.31
L8I | 7.1
I79V | 42.3
P83L | 5.75
S42N | 23.7

Set 5
Target: Prothrombin, mature alpha-thrombin (F2, Homo sapiens, UniProt P00734)
Method: aptamer microarray, sandwich
Molecule type: DNA with 2'F-ANA
Sample: in vitro
Tested at: 200 nM
Notes: whole 15-mer aptamer, many near background
Added: Cy3 exosite-II aptamer, 400 nM
Reading: higher = stronger binding
Oligonucleotide: GGTTGGTGTGGTTGG
Modification | mean fluorescence intensity [a.u.]
2'F-ANA at 2 4 5 11 14 | 70.8
2'F-ANA at 2 3 4 7 10 | 322
2'F-ANA at 1 2 3 8 9 11 12 14 15 | 89.7
2'F-ANA at 2 5 10 12 13 | 48.4
2'F-ANA at 5 8 11 12 | 142
2'F-ANA at 1 2 4 7 9 11 12 | 200
2'F-ANA at 1 2 3 4 5 10 11 13 15 | 49.5
2'F-ANA at 2 3 5 7 9 10 12 13 14 15 | 49.9
2'F-ANA at 1 4 6 7 12 13 | 201
2'F-ANA at 4 6 7 10 12 13 15 | 93
2'F-ANA at 1 2 9 12 14 15 | 62.9
2'F-ANA at 2 4 5 | 84.3
2'F-ANA at 3 4 7 8 13 14 15 | 344
2'F-ANA at 2 5 6 7 8 9 10 11 12 15 | 75.4
2'F-ANA at 2 5 8 9 10 13 14 15 | 46.1
2'F-ANA at 1 3 4 5 8 13 14 | 43.7

Other studies, line by line
Molecule | target | assay | test system | conditions | how to read | endpoint | value
GGGAGUUCUACAGUCCGACGAUCGAGUGCUUAAGCUGCCAACAGUCCGAAGAUGCUAUUUAUUUGUGUCUGUAAGUUUGUACACCGUAAUGCCAGCCUUGUUGCUGAAUUUUUUAUUUGGGGGGAGAUGACUUUGAAUUUUGUCAACAGAGGAUUGAGCAUCA | RING finger protein unkempt homolog, zinc fingers 1-6, SBP tag (UNK, Homo sapiens, UniProt Q9C0B0, residues 30-357) | RNA Bind-n-Seq | RNA, in vitro | 100 nM, RNA with constant flanks, ends assumed | baseline: input RNA pool, higher = stronger binding | bound/input enrichment | 1.2 ratio
PhoQ, residues 284 288 289 292 302 303 ASVMEA | PhoP, residues 12 14 15 18 19 DLLYY (Escherichia coli, UniProt P23836) | Sort-seq, refers to: YFP reporter | E. coli | PhoQ-PhoP variant library, added: 10 µM Mg2+ | baseline: high Mg2+ state, higher = stronger signaling | fold induction | 1.92
